Published values collected from several papers.
Each numbered part is a random draw from the data of one study; scales do not carry over between parts. Positions count from the first letter of the parent shown.
UniProt P42336, sequence (whole entry, unmodified, looked up): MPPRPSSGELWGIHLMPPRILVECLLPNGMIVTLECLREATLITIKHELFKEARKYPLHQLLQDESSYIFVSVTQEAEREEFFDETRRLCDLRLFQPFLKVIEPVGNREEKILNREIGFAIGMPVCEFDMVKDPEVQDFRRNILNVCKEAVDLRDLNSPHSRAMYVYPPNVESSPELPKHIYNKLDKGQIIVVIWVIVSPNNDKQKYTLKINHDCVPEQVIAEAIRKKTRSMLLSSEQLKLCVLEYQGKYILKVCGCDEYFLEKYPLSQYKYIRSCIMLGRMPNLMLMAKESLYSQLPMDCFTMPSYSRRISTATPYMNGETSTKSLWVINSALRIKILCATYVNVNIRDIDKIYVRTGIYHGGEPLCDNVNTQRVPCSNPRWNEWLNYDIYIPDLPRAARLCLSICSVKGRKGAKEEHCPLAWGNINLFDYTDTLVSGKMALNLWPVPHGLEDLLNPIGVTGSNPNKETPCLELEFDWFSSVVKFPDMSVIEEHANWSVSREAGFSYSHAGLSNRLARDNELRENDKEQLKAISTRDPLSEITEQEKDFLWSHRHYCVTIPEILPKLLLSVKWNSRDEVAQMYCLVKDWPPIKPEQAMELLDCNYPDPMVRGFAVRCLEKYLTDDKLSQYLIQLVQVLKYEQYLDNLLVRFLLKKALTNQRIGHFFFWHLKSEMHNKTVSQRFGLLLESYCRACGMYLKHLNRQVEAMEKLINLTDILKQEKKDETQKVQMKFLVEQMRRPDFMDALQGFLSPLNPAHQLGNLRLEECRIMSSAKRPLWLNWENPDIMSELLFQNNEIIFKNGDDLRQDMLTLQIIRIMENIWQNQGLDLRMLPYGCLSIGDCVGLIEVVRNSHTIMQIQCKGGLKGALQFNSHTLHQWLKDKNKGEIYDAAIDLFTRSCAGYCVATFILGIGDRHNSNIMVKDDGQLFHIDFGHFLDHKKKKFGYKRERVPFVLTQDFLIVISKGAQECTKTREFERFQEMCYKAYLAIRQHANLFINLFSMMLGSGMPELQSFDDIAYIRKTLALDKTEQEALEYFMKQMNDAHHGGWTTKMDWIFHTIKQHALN
UniProt Q13153, sequence (whole entry, looked up): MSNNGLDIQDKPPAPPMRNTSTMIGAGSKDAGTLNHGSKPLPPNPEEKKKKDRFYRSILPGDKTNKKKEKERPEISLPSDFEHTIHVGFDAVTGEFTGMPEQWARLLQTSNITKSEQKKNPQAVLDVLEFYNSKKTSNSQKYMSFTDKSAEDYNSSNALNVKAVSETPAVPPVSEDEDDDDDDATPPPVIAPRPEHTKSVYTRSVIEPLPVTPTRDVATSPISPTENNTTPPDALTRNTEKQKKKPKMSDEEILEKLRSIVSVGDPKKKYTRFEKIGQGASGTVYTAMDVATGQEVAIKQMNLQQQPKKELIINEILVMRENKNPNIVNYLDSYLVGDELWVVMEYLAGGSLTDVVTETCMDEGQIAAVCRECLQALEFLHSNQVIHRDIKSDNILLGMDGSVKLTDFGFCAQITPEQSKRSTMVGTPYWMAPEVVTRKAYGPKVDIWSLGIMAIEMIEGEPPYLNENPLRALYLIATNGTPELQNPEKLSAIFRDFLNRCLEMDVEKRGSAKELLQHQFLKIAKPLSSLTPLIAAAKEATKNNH
UniProt P50750, sequence (whole entry, looked up): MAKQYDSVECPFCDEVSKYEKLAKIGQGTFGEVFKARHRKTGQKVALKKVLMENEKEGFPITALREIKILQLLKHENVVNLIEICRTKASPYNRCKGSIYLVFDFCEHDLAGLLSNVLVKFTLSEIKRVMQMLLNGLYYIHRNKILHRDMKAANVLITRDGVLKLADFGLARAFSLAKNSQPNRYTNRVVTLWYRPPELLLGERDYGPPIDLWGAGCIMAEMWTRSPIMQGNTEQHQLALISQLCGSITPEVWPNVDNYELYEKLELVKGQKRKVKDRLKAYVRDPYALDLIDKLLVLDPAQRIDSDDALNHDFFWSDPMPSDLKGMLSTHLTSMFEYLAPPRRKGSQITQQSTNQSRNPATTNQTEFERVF
UniProt Q06418, sequence (whole entry, looked up): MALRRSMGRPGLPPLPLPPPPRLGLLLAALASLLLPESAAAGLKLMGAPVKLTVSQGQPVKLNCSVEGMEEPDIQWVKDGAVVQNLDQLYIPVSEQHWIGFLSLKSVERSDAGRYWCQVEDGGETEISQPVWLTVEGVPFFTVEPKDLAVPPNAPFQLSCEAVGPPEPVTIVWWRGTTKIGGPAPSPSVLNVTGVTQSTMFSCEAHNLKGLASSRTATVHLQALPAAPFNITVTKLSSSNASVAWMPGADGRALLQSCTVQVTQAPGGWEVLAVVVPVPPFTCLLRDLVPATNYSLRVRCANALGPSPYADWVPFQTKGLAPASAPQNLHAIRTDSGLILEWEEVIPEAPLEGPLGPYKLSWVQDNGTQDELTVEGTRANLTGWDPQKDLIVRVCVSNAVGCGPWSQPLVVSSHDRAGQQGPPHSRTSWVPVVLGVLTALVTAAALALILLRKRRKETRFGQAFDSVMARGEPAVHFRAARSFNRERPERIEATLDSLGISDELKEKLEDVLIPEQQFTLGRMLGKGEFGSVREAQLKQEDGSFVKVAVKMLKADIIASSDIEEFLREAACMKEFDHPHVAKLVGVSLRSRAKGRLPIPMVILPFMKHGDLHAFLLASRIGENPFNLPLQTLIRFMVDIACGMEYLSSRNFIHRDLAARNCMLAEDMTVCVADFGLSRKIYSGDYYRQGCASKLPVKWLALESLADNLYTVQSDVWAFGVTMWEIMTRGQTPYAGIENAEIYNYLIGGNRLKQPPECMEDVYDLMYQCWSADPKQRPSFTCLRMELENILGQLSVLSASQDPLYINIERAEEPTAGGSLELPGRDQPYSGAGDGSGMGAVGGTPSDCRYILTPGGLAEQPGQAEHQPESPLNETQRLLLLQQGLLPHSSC
UniProt P07947, sequence (whole entry, looked up): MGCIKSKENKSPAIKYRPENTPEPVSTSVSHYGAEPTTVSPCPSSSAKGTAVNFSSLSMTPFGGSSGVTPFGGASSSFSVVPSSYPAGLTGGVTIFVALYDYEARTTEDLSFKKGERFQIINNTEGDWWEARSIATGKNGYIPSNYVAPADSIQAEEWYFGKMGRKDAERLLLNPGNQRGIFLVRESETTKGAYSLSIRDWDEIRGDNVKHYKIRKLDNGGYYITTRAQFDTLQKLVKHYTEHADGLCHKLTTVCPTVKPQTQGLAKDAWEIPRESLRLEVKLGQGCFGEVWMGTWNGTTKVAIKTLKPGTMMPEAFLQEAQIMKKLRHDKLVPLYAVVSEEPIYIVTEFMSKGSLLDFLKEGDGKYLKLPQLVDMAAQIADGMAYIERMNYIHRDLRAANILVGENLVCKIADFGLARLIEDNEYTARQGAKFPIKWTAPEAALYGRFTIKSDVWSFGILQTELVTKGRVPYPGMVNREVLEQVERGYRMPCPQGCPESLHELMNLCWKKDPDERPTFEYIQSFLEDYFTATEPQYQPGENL
UniProt P42680, sequence (whole entry, looked up): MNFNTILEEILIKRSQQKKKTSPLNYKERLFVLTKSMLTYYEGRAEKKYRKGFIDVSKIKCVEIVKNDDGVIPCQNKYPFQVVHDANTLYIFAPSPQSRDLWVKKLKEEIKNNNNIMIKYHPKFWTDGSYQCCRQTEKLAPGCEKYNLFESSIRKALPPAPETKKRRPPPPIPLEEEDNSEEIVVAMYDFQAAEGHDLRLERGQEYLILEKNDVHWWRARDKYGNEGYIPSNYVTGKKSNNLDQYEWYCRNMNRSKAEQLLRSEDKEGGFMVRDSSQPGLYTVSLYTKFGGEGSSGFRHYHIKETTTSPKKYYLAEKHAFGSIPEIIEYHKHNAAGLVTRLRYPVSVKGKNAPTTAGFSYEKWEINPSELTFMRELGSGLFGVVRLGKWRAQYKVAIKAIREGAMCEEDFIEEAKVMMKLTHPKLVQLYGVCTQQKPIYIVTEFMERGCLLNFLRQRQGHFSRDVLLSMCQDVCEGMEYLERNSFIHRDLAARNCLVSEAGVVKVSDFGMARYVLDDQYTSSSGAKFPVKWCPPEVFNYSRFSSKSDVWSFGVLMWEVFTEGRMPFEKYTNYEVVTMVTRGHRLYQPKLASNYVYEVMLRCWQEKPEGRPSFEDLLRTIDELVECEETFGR
UniProt Q8IWQ3, sequence (whole entry, looked up): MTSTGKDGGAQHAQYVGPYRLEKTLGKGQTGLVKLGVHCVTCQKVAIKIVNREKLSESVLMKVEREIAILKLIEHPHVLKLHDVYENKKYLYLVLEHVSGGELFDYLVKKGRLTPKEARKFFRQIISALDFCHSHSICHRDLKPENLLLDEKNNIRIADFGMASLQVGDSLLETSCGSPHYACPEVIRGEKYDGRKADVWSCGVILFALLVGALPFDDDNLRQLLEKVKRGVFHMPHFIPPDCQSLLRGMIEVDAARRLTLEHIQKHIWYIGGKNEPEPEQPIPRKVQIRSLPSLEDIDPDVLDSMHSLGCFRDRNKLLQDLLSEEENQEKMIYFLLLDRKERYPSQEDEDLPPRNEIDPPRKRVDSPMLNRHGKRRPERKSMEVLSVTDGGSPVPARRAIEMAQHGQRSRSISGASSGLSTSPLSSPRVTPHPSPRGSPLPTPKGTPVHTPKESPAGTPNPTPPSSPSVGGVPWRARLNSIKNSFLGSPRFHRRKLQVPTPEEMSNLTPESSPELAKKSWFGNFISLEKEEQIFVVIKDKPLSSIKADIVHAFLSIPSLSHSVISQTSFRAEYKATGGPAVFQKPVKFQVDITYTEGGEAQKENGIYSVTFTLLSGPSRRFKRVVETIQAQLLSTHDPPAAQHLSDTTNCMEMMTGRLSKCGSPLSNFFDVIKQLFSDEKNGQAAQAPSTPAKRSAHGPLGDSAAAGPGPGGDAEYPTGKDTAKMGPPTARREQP

Set 1
SMILES: COc1cc2ncc(-c3ccccc3)nc2cc1OC
Effect on: enzyme activity
Action: inhibitor
Concentration: 0.5 µM
Relative to: control
target	remaining activity [%]
PAK6 (Homo sapiens, UniProt Q9NQU5)	82.8
TEC (Homo sapiens, UniProt P42680)	164
MELK (Homo sapiens, UniProt Q14680)	88.9
ACVRL1 (Homo sapiens, UniProt P37023)	95.8
YES1 (Homo sapiens, UniProt P07947)	96.1
PRKCQ (Homo sapiens, UniProt Q04759)	101
PRKCZ (Homo sapiens, UniProt Q05513)	96.3
MAP3K20 (Homo sapiens, UniProt Q9NYL2)	94.7
CSNK1D (Homo sapiens, UniProt P48730)	101
Cyclin-dependent kinase 2, with cyclin E (CDK2, Homo sapiens, UniProt P24941)	85.4
TYRO3 (Homo sapiens, UniProt Q06418)	100
PAK1 (Homo sapiens, UniProt Q13153)	91.3
BRSK2 (Homo sapiens, UniProt Q8IWQ3)	103
SRPK1 (Homo sapiens, UniProt Q96SB4)	105

Set 2
SMILES: CC(C)CC(=O)N1CCc2nc(-c3ccc(Br)cc3)nc(N(C)Cc3ccccc3)c2C1
Effect on: cell-free assay
Method: competition with immobilised ligand
Concentration: 0.1 µM
target	remaining binding
LYN (Homo sapiens, UniProt P07948)	88%
PRKACB (Homo sapiens, UniProt P22694)	82%
CDK9 (Homo sapiens, UniProt P50750)	100%
PIK3CA (Homo sapiens, UniProt P42336, Q546K)	97%

Set 3
Target: ABI1, truncated, D143A, DHFR fusion (Arabidopsis thaliana, UniProt P49597)
Method: DHFR PCA, dose-response
Medium: yeast
Notes: Hill fit, mean, not affinity
With: (+)-ABA, dose series
Reading: lower = more sensitive
Parent: PYL1, truncated, DHFR fusion (Arabidopsis thaliana, UniProt Q8VZS8); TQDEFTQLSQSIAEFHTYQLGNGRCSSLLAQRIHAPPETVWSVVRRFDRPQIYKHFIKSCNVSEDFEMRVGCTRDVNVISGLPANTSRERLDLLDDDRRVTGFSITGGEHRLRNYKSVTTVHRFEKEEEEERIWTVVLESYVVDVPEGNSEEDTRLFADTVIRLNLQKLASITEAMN
Variant	ABA EC50 [µM]
K168F	46.9
D48A	63.1
E109N	2.56
E67R	3.28
R113D	15.2
D144S	18.3
P83H	206
Q7C	1.61

Set 4
Target: CCNE1, cyclin fold, Cln2 fusion (human)
Method: yeast growth competition, sequencing
Medium: yeast
Notes: weak parent motif
Relative to: not given
Reading: higher = stronger binding
Parent: MASTL docking peptide (human); PMIAKNLMCELDE
Variant	normalised enrichment score
PMIAKNLMCALDE [E10A]	0.0402
PMIAKNLICELDE [M8I]	-0.106
PMIAKNLMCEKDE [L11K]	-0.0707
PMIAKNIMCELDE [L7I]	0.107
PMIAINLMCELDE [K5I]	0.383
PMIAKNGMCELDE [L7G]	-0.563
PMLAKNLMCELDE [I3L]	0.126
PMIALNLMCELDE [K5L]	0.484

Some of these lines once more (set 1):
target	remaining activity [%]
PRKCQ (Homo sapiens, UniProt Q04759)	101
PRKCZ (Homo sapiens, UniProt Q05513)	96.3
MAP3K20 (Homo sapiens, UniProt Q9NYL2)	94.7
CSNK1D (Homo sapiens, UniProt P48730)	101
Cyclin-dependent kinase 2, with cyclin E (CDK2, Homo sapiens, UniProt P24941)	85.4
